Experimental data collected from several papers.
Values joined by “and” are separate records of one study, mostly repeats; a detail may differ. ± marks the error that the study gave.
Tspo: Translocator protein (Tspo, Rattus norvegicus, UniProt P16257)
Sequence of UniProt P16257 (whole entry, looked up): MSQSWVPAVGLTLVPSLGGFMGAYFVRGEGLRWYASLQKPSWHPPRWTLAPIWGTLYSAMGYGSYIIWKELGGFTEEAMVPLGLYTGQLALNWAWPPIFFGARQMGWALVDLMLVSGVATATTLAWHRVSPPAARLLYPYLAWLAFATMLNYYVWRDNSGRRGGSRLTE
Astl: Astacin-like metalloendopeptidase (Astl, Mus musculus, UniProt Q6HA09)
Sequence of UniProt Q6HA09 (whole entry, looked up): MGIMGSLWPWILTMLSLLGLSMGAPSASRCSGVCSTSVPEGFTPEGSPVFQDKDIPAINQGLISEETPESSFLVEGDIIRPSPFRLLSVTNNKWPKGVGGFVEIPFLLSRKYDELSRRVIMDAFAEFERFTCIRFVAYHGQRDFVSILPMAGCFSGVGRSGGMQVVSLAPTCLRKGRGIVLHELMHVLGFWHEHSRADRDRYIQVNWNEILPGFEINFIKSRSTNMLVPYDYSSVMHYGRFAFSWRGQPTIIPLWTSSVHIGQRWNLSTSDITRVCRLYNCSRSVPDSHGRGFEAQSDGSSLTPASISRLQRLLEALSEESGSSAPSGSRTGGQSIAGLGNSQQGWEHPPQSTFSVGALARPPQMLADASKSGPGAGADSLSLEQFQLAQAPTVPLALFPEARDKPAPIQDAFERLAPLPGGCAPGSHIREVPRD
bglA: bglA (Thermotoga maritima, UniProt Q08638)
Sequence of UniProt Q08638 (whole entry, looked up): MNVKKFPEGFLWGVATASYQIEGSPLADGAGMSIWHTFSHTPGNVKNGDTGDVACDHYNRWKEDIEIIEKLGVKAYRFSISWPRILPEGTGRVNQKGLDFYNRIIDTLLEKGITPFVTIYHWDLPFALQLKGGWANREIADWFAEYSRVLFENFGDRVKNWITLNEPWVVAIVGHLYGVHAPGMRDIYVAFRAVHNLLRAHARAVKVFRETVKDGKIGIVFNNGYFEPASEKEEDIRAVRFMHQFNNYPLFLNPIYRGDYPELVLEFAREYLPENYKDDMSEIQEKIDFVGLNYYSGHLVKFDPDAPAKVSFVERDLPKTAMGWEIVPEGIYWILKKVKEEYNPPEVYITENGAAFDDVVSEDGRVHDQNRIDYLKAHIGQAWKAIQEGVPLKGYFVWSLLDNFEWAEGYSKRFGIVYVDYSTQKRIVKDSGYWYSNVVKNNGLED
GLAA: Glucoamylase (GLAA, Aspergillus niger, UniProt P69328)
Sequence of UniProt P69328 (whole entry, looked up): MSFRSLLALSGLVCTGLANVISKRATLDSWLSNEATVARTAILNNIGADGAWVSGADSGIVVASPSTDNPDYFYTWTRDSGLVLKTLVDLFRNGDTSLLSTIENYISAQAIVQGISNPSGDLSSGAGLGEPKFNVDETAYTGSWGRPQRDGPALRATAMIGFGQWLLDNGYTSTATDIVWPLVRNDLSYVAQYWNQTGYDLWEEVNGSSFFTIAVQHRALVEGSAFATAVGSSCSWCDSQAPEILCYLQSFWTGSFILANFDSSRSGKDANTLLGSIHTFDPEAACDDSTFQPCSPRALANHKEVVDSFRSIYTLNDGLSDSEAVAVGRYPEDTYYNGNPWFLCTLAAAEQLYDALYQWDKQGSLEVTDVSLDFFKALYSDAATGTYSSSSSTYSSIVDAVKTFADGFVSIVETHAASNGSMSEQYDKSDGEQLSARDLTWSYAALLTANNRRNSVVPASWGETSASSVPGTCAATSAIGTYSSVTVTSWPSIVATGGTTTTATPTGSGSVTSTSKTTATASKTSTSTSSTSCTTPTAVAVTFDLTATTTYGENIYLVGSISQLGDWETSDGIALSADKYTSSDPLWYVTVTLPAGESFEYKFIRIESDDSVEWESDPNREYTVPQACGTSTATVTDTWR
Calpain-2 catalytic subunit: Calpain-2 catalytic subunit (Homo sapiens, UniProt P17655)
Sequence of UniProt P17655 (whole entry, looked up): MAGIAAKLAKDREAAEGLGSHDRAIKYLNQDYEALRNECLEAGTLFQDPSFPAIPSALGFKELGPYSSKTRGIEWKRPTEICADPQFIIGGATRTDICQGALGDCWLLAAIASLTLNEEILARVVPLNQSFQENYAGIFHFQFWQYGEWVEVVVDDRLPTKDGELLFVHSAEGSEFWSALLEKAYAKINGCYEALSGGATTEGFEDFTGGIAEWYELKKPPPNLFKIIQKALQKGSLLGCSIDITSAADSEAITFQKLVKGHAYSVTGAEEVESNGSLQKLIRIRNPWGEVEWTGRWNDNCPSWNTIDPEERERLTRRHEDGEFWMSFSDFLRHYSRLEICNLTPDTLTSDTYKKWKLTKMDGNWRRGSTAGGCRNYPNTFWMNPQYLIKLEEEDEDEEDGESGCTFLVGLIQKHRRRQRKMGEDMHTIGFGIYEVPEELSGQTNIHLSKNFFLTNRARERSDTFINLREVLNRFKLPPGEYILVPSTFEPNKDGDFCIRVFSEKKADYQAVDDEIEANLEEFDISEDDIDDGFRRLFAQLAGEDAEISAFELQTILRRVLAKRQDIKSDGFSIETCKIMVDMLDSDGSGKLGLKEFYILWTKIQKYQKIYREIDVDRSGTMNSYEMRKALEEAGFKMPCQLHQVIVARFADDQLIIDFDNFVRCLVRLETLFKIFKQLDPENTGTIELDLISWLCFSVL
XIAP BIR3: E3 ubiquitin-protein ligase XIAP, BIR3 (XIAP, Homo sapiens, UniProt P98170)
Sequence of UniProt P98170 (whole entry, looked up): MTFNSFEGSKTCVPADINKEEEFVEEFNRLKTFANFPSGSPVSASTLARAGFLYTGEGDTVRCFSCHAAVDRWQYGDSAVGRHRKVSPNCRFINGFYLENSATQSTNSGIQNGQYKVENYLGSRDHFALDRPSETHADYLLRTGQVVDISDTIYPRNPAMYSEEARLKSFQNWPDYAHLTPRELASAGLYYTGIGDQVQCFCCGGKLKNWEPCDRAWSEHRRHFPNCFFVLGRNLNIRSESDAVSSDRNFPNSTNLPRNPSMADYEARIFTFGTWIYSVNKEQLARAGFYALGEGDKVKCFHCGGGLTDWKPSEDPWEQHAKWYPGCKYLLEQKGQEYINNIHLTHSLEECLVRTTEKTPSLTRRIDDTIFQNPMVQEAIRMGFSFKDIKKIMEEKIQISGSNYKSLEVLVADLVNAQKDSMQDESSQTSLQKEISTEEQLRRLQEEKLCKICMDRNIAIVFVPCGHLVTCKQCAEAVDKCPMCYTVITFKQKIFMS
EPHA2: Ephrin type-A receptor 2 (EPHA2, Homo sapiens, UniProt P29317)
Sequence of UniProt P29317 (whole entry, looked up): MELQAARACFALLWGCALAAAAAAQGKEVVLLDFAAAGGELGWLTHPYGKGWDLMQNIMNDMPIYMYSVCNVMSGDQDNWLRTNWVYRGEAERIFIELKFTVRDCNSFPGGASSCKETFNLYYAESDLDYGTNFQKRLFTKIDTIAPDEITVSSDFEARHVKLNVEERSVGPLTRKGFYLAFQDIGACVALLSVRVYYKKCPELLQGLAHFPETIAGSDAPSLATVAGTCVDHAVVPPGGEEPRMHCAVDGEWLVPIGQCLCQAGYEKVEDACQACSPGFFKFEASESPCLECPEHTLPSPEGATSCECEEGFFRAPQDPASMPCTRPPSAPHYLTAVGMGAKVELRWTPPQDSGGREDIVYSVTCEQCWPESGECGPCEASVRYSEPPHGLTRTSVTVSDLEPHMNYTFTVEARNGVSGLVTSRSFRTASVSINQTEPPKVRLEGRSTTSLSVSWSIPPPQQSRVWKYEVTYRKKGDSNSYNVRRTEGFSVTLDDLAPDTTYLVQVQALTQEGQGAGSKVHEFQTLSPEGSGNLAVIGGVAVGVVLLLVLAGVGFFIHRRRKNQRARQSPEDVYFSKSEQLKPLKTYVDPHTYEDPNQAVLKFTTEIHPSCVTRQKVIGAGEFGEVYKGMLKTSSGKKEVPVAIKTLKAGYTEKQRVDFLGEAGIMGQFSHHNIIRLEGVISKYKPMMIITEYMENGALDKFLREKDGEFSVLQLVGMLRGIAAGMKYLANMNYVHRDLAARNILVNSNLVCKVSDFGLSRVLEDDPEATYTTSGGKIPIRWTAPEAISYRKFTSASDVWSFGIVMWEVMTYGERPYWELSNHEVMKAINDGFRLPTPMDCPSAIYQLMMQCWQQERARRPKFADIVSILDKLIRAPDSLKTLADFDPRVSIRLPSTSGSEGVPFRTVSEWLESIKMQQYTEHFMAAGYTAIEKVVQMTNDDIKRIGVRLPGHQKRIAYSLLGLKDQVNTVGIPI
Sequence of UniProt P07384 (whole entry, looked up): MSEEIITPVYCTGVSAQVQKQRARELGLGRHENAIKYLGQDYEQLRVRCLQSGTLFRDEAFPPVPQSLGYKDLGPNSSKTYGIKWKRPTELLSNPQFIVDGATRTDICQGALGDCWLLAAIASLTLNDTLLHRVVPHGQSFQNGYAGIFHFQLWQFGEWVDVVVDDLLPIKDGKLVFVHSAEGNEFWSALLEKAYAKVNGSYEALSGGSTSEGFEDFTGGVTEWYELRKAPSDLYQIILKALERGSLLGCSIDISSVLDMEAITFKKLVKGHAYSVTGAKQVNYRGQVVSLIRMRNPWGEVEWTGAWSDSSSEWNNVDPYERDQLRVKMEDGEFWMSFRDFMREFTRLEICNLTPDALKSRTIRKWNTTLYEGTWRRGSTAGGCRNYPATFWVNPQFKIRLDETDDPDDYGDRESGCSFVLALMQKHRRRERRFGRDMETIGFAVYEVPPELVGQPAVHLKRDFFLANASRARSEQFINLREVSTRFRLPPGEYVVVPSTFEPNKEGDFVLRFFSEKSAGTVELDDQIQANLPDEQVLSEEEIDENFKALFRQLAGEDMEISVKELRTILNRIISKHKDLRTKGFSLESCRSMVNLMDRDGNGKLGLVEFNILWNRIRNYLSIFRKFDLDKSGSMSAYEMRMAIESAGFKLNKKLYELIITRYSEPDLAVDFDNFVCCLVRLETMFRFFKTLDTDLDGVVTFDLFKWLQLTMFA
Sequence of UniProt P29117 (whole entry, looked up): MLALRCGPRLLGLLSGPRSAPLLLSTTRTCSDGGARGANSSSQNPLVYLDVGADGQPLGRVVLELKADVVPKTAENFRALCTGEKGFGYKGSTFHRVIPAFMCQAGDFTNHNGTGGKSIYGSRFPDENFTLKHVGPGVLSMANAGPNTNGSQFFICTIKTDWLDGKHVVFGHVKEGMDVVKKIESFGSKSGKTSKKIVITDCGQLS
Sequence of UniProt P00374 (whole entry, looked up): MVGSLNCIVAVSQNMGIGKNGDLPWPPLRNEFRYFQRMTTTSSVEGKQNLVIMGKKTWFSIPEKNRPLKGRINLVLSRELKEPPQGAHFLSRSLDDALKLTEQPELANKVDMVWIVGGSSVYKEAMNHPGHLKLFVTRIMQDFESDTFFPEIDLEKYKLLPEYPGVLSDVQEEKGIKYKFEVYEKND

| SMILES | target | assay | system | conditions | Ki |
| --- | --- | --- | --- | --- | --- |
| CC(Oc1cc(-c2ccccc2)nc2ncccc12)C(=O)N(C)c1ccccc1 (centres unmarked) | Tspo | binding, radioligand displacement | rat brain homogenate |  | 0.00029 ± 3e-05 µM |
| CC[C@H](C)[C@H](NC(=O)[C@@H](NC(=O)[C@H](CO)NC(=O)[C@@H](NC(=O)[C@H](CCC(N)=O)NC(=O)[C@H](Cc1c[nH]c2ccccc12)NC(=O)[C@@H](N)CS)[C@@H](C)O)[C@@H](C)CC)C(=O)O | Na(+)/H(+) exchange regulatory cofactor NHE-RF2, PDZ domain 2 (Homo sapiens, UniProt Q15599) | binding to PDZ2 domain, inhibitor, fluorescence polarization |  |  | 246 ± 186 µM |
| O=C(CCN(Cc1cccc(C(=O)O)c1)Cc1cccc(C(=O)O)c1)NO | Astl | enzyme activity, inhibitor, fluorogenic |  | pH 7.4, 37 °C, apparent Ki, Morrison equation, together with: 25 µM substrate | 1.06 ± 0.03 µM |
| CCCCCCCCNC(=S)N1[C@H](CCCCCCCC)[C@H](O)[C@@H](O)[C@H](O)[C@H]1CO | bglA | competitive inhibitor |  | together with: p-nitrophenyl glucopyranoside | > 2000 µM |
| NC(CC(=O)c1cccc(O)c1)C(=O)O (centres unmarked) | Kynureninase (Rattus norvegicus, UniProt P70712) | inhibitor |  |  | 0.04 µM |
| CN(C)[C@@H](CNC(=O)NC[C@H]1Cc2ccccc21)Cc1ccccc1 | DRD2 (Homo sapiens, UniProt P14416) | ligand displacement, radioligand |  |  | > 10 µM |
| [N-]=[N+]=N[C@H]1C[C@H](n2cnc3c(=S)[nH]c(N)nc32)O[C@@H]1COP(=O)(O)OP(=O)(O)OP(=O)(O)O | TERT (Homo sapiens, UniProt O14746) | enzyme activity, inhibitor |  |  | 9 µM |
| COC(=O)c1ccc(-n2nc(C(F)(F)F)cc2-c2cc(OC)c(OC)c(OC)c2)cc1 | tubulin (goat) | colchicine binding, fluorescence competition |  | 37 °C, together with: colchicine 5 µM | 2.2 ± 0.5 µM |
| N#Cc1ccc(CN(CCC(=O)NO)Cc2ccc(C#N)cc2)cc1 | Astl | enzyme activity, inhibitor, fluorogenic |  | pH 7.4, 37 °C, apparent Ki, Morrison equation, together with: 25 µM substrate | 1.24 ± 0.37 µM |
| Cc1ncsc1-c1ccc(CNC(=O)[C@@H]2C[C@@H](O)CN2C(=O)[C@@H](NC(=O)OC(C)(C)C)C(C)(C)C)cc1 | von Hippel-Lindau disease tumor suppressor, with elongin B/C (VHL, Homo sapiens, UniProt P40337) | binding, competitor, fluorescence polarization |  | 90 min, together with: 10 nM BODIPY FL VH032 with 100 nM GST-VCB | 8 µM |
| CCCCCCCCN1[C@H](CCC)[C@H](O)[C@@H](O)[C@H](O)[C@H]1CO | GLAA | enzyme activity, competitive inhibitor |  | optimal pH, together with: p-nitrophenyl glycopyranoside | > 2000 µM |
| CCC(NC(=O)C(CC(C)C)NC(=O)CCc1ccccc1)C(=O)C(=O)NCc1cc(OC)cc(OC)c1 (centres unmarked) | Calpain-2 catalytic subunit | enzyme activity, inhibitor, fluorescence |  |  | 0.056 µM |
| CC(C)C[C@H](NC(=O)[C@H](Cc1ccccc1)NC(=O)[C@H](CO)NC(=O)[C@H](CCCNC(=N)N)NC(=O)[C@@H]1CCCN1)C(=O)N[C@H](C(=O)N[C@@H](CCCNC(=N)N)C(=O)N[C@@H](CCCCN)C(=O)N1CCC[C@H]1C(=O)N[C@@H](CO)C(=O)N[C@@H](CC(=O)O)C(=O)N1CCC[C@H]1C(=O)N[C@@H](CC(N)=O)C(=O)N[C@@H](CCCNC(=N)N)C(=O)N[C@@H](CCCCN)C(=O)N1CCC[C@H]1C(=O)N[C@@H](CC(N)=O)C(=O)N[C@@H](Cc1ccc(O)cc1)C(=O)N[C@@H](CO)C(=O)N[C@@H](CCC(=O)O)C(=O)O)C(C)C | Lysine-specific histone demethylase 1B (Mus musculus, UniProt Q8CIG3) | enzyme activity, inhibitor |  | pH 7.5 | 2.22 µM |
| O=C(CNc1ccc2ccccc2c1)N/N=C/c1cc(Br)c(O)c(Br)c1 | CFTR (Homo sapiens, UniProt P13569) | chloride current, inhibitor, short-circuit current | FRT | basolateral membrane permeabilized | 4.7 µM |
| COc1ccc(CN(CC(=O)NO)Cc2cccc(C(=O)O)c2)cc1 | Astl | enzyme activity, inhibitor, fluorogenic |  | pH 7.4, 37 °C, apparent Ki, Morrison equation, together with: 25 µM substrate | 6.33 ± 0.31 µM |
| CCCCCCCCNC(=S)N1[C@H](CCC)[C@H](O)[C@@H](O)[C@H](O)[C@H]1CO | GLAA | enzyme activity, competitive inhibitor |  | optimal pH, together with: p-nitrophenyl glycopyranoside | > 2000 µM |

| SMILES | target | assay | system | conditions | Ki |
| --- | --- | --- | --- | --- | --- |
| CCC(NC(=O)C(CC(C)C)NC(=O)NCc1ccccc1)C(=O)C(=O)NCc1cc(OC)cc(OC)c1 (centres unmarked) | CAPN1 (Homo sapiens, UniProt P07384) | enzyme activity, inhibitor, fluorescence |  |  | 0.208 µM |
| CN[C@@H](C)C(=O)N[C@H]1CN(C(=O)Cc2ccccc2)CC[C@H]2CC[C@@H](C(=O)NCc3ccc(F)cc3)N2C1=O | XIAP BIR3 | ligand displacement, FP |  |  | 0.393 µM |
| CNC(=O)C1CCN(c2cc(C)c(F)cc2NC(=O)c2ccc(-c3cc(O)ccc3C)c(C)c2)CC1 | EPHA2 | enzyme activity, inhibitor |  |  | 0.004 µM and < 0.01 µM |
| N=C(N)Nc1nc2cc(C(F)(F)F)ccc2[nH]1 | DHFR (Homo sapiens, UniProt P00374) | inhibitor |  |  | 2.12 µM |
| CCCCCCCC[C@@H]1[C@H](O)[C@@H](O)[C@H](O)[C@H]2CS/C(=N/CCCC)N12 | bglA | competitive inhibitor |  | together with: p-nitrophenyl glucopyranoside | > 2000 µM |
| CNc1ccccc1C(=O)O[C@H]1[C@@H](O)[C@H](n2ccc(=O)[nH]c2=O)O[C@@H]1COP(=O)(O)OP(=O)(O)O | ADCY1 (Bos taurus, UniProt P19754) | adenylyl cyclase activity, inhibitor | Sf9 membranes | together with: 5 mM MnCl2, 100 µM forskolin | 0.39 ± 0.05 µM |
| CC(Oc1cc(-c2ccccc2)nc2cccnc12)C(=O)N(C)c1ccccc1 (centres unmarked) | Tspo | binding, radioligand displacement | rat brain homogenate |  | 0.0014 ± 0.0005 µM |
| C/C=C/C[C@@H](C)[C@@H](O)[C@H]1C(=O)N[C@@H](CC)C(=O)N(C)C(Cc2ccc(C(=O)NCCCCCCNC(=O)c3ccc(-c4c5ccc(=[N+](C)C)cc-5oc5cc(N(C)C)ccc45)cc3)cc2)C(=O)N(C)[C@@H](CC(C)C)C(=O)N[C@@H](C(C)C)C(=O)N(C)[C@@H](CC(C)C)C(=O)N[C@@H](C)C(=O)N[C@H](C)C(=O)N(C)[C@@H](CC(C)C)C(=O)N(C)[C@@H](CC(C)C)C(=O)N(C)[C@@H](C(C)C)C(=O)N1C (some centres unmarked) | Peptidyl-prolyl cis-trans isomerase F, mitochondrial (Ppif, Rattus norvegicus, UniProt P29117) | PPIase activity, inhibitor |  | pH 7.5, 15 °C | 0.202 µM |
| Cc1ccc(C(=O)c2ccc(NC(=O)c3ncn(-c4ccc(Cl)cc4)n3)cc2)cc1 | CNR1 (Homo sapiens, UniProt P21554) | binding |  |  | no binding |
| CCC(NC(=O)C(CC(C)C)NC(=O)NCc1ccc(C#N)cc1)C(=O)C(=O)NCc1cc(OC)cc(OC)c1 (centres unmarked) | Calpain-2 catalytic subunit | enzyme activity, inhibitor, fluorescence |  |  | 0.137 µM |
| CNC(=O)C1CCN(c2ccccc2NC(=O)c2ccc(-c3cc(O)ccc3C)c(OC)c2)CC1 | EPHA2 | enzyme activity, inhibitor |  |  | 0.0092 µM |
| CC(=O)N[C@@H]1[C@@H](O)[C@H](O)[C@@H](CO)N[C@@H]1CP(=O)(O)OP(=O)(O)OC/C=C(/C)CC/C=C(\C)CC/C=C(\C)CCC=C(C)C | Peptidoglycan glycosyltransferase (Clostridioides difficile, UniProt Q189X7) |  |  | Clostridioides difficile protein | 6.3 ± 1.4 µM |
| CNC(=O)[C@@]12C[C@@H]1[C@@H](n1cnc3c(NCc4cccc(Cl)c4)nc(C#Cc4cccc(Cl)c4)nc31)[C@H](O)[C@@H]2O | Tspo | ligand displacement, radioligand |  |  | 1.77 µM |
| CN[C@@H](C)C(=O)N[C@H]1CN(C(=O)Cc2ccccc2)CC[C@H]2CC[C@@H](C(=O)NCc3ccccc3C(F)(F)F)N2C1=O | XIAP BIR3 | ligand displacement, FP |  |  | 4.24 µM |
| CNC(=O)C1CCN(c2ccccc2NC(=O)c2ccc(-c3cc(OC)ccc3C)c(C)c2)CC1 | EPHA2 |  |  |  | > 0.25 µM |
| CC[C@H](C)[C@H](NC(=O)[C@H](CO)NC(=O)[C@H](Cc1ccc(O)cc1)NC(=O)[C@H](CC(=O)O)NC(=O)[C@H](CO)NC(=O)[C@@H](NC(=O)[C@H](Cc1ccccc1)NC(=O)[C@@H](N)[C@@H](C)O)[C@@H](C)CC)C(=O)N[C@@H](C)C(=O)N[C@@H](CCSC)C(=O)N[C@@H](CC(=O)O)C(=O)N[C@@H](CCCCN)C(=O)N[C@H](C(=O)N[C@@H](Cc1c[nH]cn1)C(=O)N[C@@H](CCC(N)=O)C(=O)N[C@@H](CCC(N)=O)C(=O)N[C@@H](CC(=O)O)C(=O)N[C@@H](Cc1ccccc1)C(=O)N[C@H](C(=O)N[C@@H](CC(N)=O)C(=O)N[C@@H](Cc1c[nH]c2ccccc12)C(=O)N[C@@H](CC(C)C)C(=O)N[C@@H](CC(C)C)C(=O)N[C@@H](C)C(=O)N[C@@H](CCC(N)=O)C(=O)N[C@@H](CCCCN)C(N)=O)C(C)C)[C@@H](C)CC | GIPR (Homo sapiens, UniProt P48546) | antagonist, Schild analysis, refers to: cAMP | COS-7 transfected | 10 min preincubation, together with: GIP(1-42) | 0.0152 µM |

Repeated from above:
| SMILES | target | assay | system | conditions | Ki |
| --- | --- | --- | --- | --- | --- |
| N=C(N)Nc1nc2cc(C(F)(F)F)ccc2[nH]1 | DHFR (Homo sapiens, UniProt P00374) | inhibitor |  |  | 2.12 µM |
| CCCCCCCC[C@@H]1[C@H](O)[C@@H](O)[C@H](O)[C@H]2CS/C(=N/CCCC)N12 | bglA | competitive inhibitor |  | together with: p-nitrophenyl glucopyranoside | > 2000 µM |
